Published values collected from several papers.
Compare with care: the assays were run in different laboratories. Numbers after ± are the reported error.
UniProt Q05655, sequence (whole entry, looked up): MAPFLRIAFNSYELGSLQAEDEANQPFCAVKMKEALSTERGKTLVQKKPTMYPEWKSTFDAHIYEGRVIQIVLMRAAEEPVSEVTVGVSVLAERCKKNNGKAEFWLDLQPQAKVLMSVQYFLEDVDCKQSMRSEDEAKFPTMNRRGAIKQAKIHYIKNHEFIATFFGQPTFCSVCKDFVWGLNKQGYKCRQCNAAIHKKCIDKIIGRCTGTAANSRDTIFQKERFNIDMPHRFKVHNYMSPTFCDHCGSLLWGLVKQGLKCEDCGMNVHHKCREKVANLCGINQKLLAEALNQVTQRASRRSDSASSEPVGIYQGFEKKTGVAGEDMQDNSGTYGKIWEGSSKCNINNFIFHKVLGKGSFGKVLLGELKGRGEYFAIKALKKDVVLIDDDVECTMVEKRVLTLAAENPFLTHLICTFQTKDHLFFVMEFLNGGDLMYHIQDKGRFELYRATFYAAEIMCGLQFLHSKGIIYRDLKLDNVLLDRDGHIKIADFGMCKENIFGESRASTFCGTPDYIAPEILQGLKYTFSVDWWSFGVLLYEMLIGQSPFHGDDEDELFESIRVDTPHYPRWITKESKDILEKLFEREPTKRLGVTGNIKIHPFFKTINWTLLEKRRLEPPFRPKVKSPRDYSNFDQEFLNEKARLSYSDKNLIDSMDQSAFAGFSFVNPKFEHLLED

| SMILES | target or system | test | test system | setting | how to read | endpoint | value |
| --- | --- | --- | --- | --- | --- | --- | --- |
| CCCCCCCCCCCCCCCC(=O)N[C@@H](CCC(=O)NCCCC[C@H](NC(=O)[C@H](CC(=O)O)NC(=O)[C@H](CO)NC(=O)[C@@H](NC(=O)[C@H](Cc1ccccc1)NC(=O)[C@@H](NC(=O)CNC(=O)[C@H](CCC(N)=O)NC(=O)[C@H](CO)NC(=O)[C@@H](N)Cc1c[nH]cn1)[C@@H](C)O)[C@@H](C)O)C(=O)N[C@@H](CO)C(=O)N[C@@H](CCC(=O)O)C(=O)N[C@@H](Cc1ccc(O)cc1)C(=O)N[C@@H](CC(C)C)C(=O)N[C@@H](CC(=O)O)C(=O)N[C@@H](CO)C(=O)N[C@@H](CCC(=O)O)C(=O)N[C@@H](CCCNC(=N)N)C(=O)N[C@@H](C)C(=O)N[C@@H](CCCNC(=N)N)C(=O)N[C@@H](CC(=O)O)C(=O)N[C@@H](Cc1ccccc1)C(=O)N[C@H](C(=O)N[C@@H](C)C(=O)N[C@@H](Cc1c[nH]c2ccccc12)C(=O)N[C@@H](CC(C)C)C(=O)N[C@@H](CCC(=O)O)C(=O)N[C@@H](C)C(=O)NCC(=O)NCC(=O)O)C(C)C)C(=O)O |  |  | human, all renal groups | sc, 100 µg single dose |  | injection site erythema | 2.7% |
| Clc1cc2c(cc1Cl)Oc1c(ccc(Cl)c1Cl)O2 |  | ultrafiltration | cow milk whey | 200 nM nominal in whole milk |  | final permeate concentration | 0.75 nM |
| CC[C@H](C)[C@H](NC(=O)[C@H](CC(C)C)NC(=O)[C@H](Cc1c[nH]c2ccccc12)NC(=O)[C@H](CCC(N)=O)NC(=O)[C@@H](NC(=O)[C@H](Cc1ccccc1)NC(=O)[C@H](C)NC(=O)[C@H](CCCCNC(=O)COCCOCCNC(=O)COCCOCCNC(=O)CC[C@H](NC(=O)CCCCCCCCCCCCCCCCCCC(=O)O)C(=O)O)NC(=O)[C@H](CCC(N)=O)NC(=O)[C@H](C)NC(=O)[C@@H](NC(=O)[C@H](CCCCN)NC(=O)[C@H](CC(=O)O)NC(=O)[C@H](CC(C)C)NC(=O)C(C)(C)NC(=O)[C@@H](NC(=O)[C@H](CO)NC(=O)[C@H](Cc1ccc(O)cc1)NC(=O)[C@H](CC(=O)O)NC(=O)[C@H](CO)NC(=O)[C@@H](NC(=O)[C@H](Cc1ccccc1)NC(=O)[C@@H](NC(=O)CNC(=O)[C@H](CCC(=O)O)NC(=O)C(C)(C)NC(=O)[C@@H](N)Cc1ccc(O)cc1)[C@@H](C)O)[C@@H](C)O)[C@@H](C)CC)[C@@H](C)CC)C(C)C)C(=O)N[C@@H](C)C(=O)NCC(=O)NCC(=O)N1CCC[C@H]1C(=O)N[C@@H](CO)C(=O)N[C@@H](CO)C(=O)NCC(=O)N[C@@H](C)C(=O)N1CCC[C@H]1C(=O)N1CCC[C@H]1C(=O)N1CCC[C@H]1C(=O)N[C@@H](CO)C(N)=O |  |  | human, plasma | subcutaneous, 5 mg first dose, week 1, 5 mg group, tau 168 h, geometric mean |  | AUC(0-tau) | 48800 ng·h/mL |
| CC(=O)c1c(C)c2cnc(Nc3ccc(C4CCN(CCS(C)(=O)=O)CC4)cn3)nc2n(C2CCCC2)c1=O |  |  | human, plasma | oral, 100 mg twice daily, single dose, monotherapy |  | Tmax | 1.5 h |
| CO[C@H]1C[C@@H]2CC[C@@H](C)[C@@](O)(O2)C(=O)C(=O)N2CCCC[C@H]2C(=O)O[C@H]([C@H](C)C[C@@H]2CC[C@@H](OC(=O)NCCOCCOCCOCCOCCOCCOCCOCCOCCC(=O)N3CCc4cc(Cn5nc(-c6ccc7oc(N)nc7c6)c6c(N)ncnc65)ccc4C3)[C@H](OC)C2)C[C@@H](O)[C@H](C)/C=C(\C)[C@@H](O)[C@@H](OC)C(=O)[C@H](C)C[C@H](C)/C=C/C=C/C=C/1C |  | phase 1 dose escalation, refers to: neutropenia | advanced solid tumour patients | intravenous, 16 mg weekly, grade ≥3 |  | dose-reducing adverse events | 25% |
| C=CC(=O)Nc1cc(Nc2nccc(Nc3cc(Cl)c(F)cc3C(C)(C)O)n2)c(OC)cc1N1CC[C@@H](N(C)C)C1 |  |  | human patients | oral, 50 mg, treatment-emergent adverse events |  | patients with fatigue | 33.3% |
| C[C@@H](NC(=O)N1C(=O)[C@H](Cc2ccnc(N)c2)[C@H]1C(=O)O)C1CCCCC1 |  |  | healthy Chinese adults | continuous intravenous infusion, 2.25 mg/kg/h, 5.0 days |  | related decreased WBC | 0% |
| CC(C)C(=O)OC[C@H]1O[C@@H](n2ccc(NO)nc2=O)[C@H](O)[C@@H]1O |  |  | rat maternal blood dialysate | 250 ng/mL, 6 h, room temperature, high concentration, added: NHC 1000 ng/mL |  | bench-top stability | 100.7 ± 0.26% |
| CC1(C)C(/C=C(\Cl)C(F)(F)F)C1C(=O)OC(C#N)c1cccc(Oc2ccccc2)c1 (stereo not shown) |  | IVIVE scaling | human adult |  |  | hepatic intrinsic clearance | 3720 L/h/kg liver |
| O=C1Nc2cc3[nH]nc(-c4ccncc4)c3cc2CN1Cc1ccccc1 |  | CTCAE v4.03 | advanced solid tumour patients | intravenous, 9.6 mg/kg, schedules 1/2 |  | patients with dyspnoea | 11% |
| COc1cc2c(Oc3ccc4[nH]c(C)cc4c3F)ccnc2cc1OCC1(N)CC1 |  |  | paediatric recurrent refractory sarcoma | 8 mg/kg |  | grade 1 or 2 Tinnitus | 0% |
| C=CC(=O)N1CC[C@H](n2nc(C#Cc3cc(OC)cc(OC)c3)c3c(N)ncnc32)C1 |  |  | patients with advanced solid tumours | oral, dose not given, Nausea, any grade, QD, added: phosphate-binding therapy |  | adverse drug reaction incidence | 17.5% |
| CC1CCCN(CCCNC(=O)c2cc(Sc3ccc(F)cc3)nc3ccccc23)C1 (stereo not shown) | Vero-E6 | CellTiter-Glo ATP |  | 72 h, first round 5-point | reference: DMSO 0%, hyamine -100%, more negative, more toxic | maximum response | 4.36% |
| C[C@]1(CO)Cc2ncn(-c3ccc(C#N)c(Cl)c3)c2C(=O)O1 |  |  | healthy Japanese adults, plasma | 80 mg once daily, multiple dose |  | Tmax at steady state | 0.5 h |
| Cc1cc(C)c(CNC(=O)c2cc(Cl)c3c(c2C)O[C@@](C)([C@H]2CC[C@H](N(C)C)CC2)O3)c(=O)[nH]1 |  |  | relapsed/refractory NHL patients | dose not given, trial, safety set, all TEAEs grade 5 |  | incidence of dry skin | 0% |
| CCC[C@@](N)(CO)CCc1ccc(OCCCCCC(C)C)cc1 |  |  | dog | oral, 10 mg/kg |  | Cmax | 343 nM |

| SMILES | target or system | test | test system | setting | how to read | endpoint | value |
| --- | --- | --- | --- | --- | --- | --- | --- |
| CC(C)(c1ccccc1)c1cc(-n2nc3ccccc3n2)c(O)c(C(C)(C)c2ccccc2)c1 |  | exposure assessment | human, age 1-2 years | spray sunscreen |  | mean daily dermal uptake | 15 ng/kg body weight/day |
| CNC(=O)n1ccc2cc(Oc3ccnc(NC(=O)c4ccc(C5CCN(CCO)CC5)cc4)c3)c(OCCOC)cc21 |  |  | healthy human, plasma | oral, dose not given, added: rabeprazole steady state | reference: compound alone | AUC(0-t) change | ~8% |
| O=C(Nc1ccccc1)C1CCN(C(=O)Oc2cccnc2)CC1 |  |  | healthy women | oral, 20 mg, 7 days |  | adverse event Anxiety | 0% |
| CC(C)n1c(C2CCNCC2)nc2c([N+](=O)[O-])c(Br)c(Br)cc21 |  | refers to: Fasciitis | AML patients | 125 mg |  | adverse events causing interruption | 2% |
| C[C@H]1CN(c2n[nH]c3nc(N[C@H]4CC[C@H](NS(=O)(=O)CCC(F)(F)F)CC4)ncc23)CCO1 | Protein kinase C delta type (PRKCD, Homo sapiens, UniProt Q05655) | inhibitor, Kinobeads competition profiling |  | 0.16 µM | reference: vehicle | relative abundance | 0.97 |
| C=CCNc1c(O)cc2c(O)c1C[C@@H](C)C[C@H](OC)[C@H](O)[C@@H](C)/C=C(\C)[C@H](OC(N)=O)[C@@H](OC)/C=C\C=C(/C)C(=O)N2 |  |  | human unresectable metastatic GIST or sarcoma | intravenous, dose not given |  | discontinuation due to death | 3.7% |
| COc1ccc(-c2c(-c3ccc(C#N)c(F)c3)nc(N3CCC(N)CC3)n(C)c2=O)cc1F |  | refers to: Chest pain | human patients | oral, dose not given, dose escalation, NG |  | serious adverse event incidence | 0% |
| CN1CC[C@@H](c2c(O)cc(O)c3c(=O)cc(-c4ccc(C(F)(F)F)cc4Cl)oc23)[C@@H]1CO |  | refers to: Pyrexia | relapsed or refractory haematological malignancies | oral, dose not given, all arms |  | patients with adverse event | 10% |
| CC(C)[C@@H]1NC(=O)CNC(=O)[C@H](CC(N)=O)NC(=O)[C@H](CCCNC(=N)N)NC(=O)[C@H](Cc2ccc(O)cc2)NC(=O)[C@H](C(C)C)NC(=O)[C@@H](NC(=O)[C@@H](NC(=O)[C@H](CC(N)=O)NC(=O)[C@H](Cc2c[nH]c3ccccc23)NC(=O)[C@H](C)NC(=O)[C@H](Cc2ccccc2)NC(=O)CN)C(C)C)CSSC[C@@H](C(=O)N[C@@H](Cc2cnc[nH]2)C(=O)N[C@@H](CCCNC(=N)N)C(=O)N[C@@H](CCCNC(=N)N)C(=O)N[C@@H](C)C(=O)N[C@@H](CC(N)=O)C(N)=O)NC(=O)[C@H](C(C)C)NC(=O)[C@H](CCCNC(=N)N)NC1=O |  |  | ICR mice, blood | intraperitoneal, 10 mg/kg, day 5 |  | mean corpuscular volume | 40.2 ± 0.54 fL |
| O=C(Nc1cccc(Cl)c1)C1CCCN(Cc2cccc(-c3ccc(F)cc3F)c2)C1 (stereo not shown) | Vero-E6 | CellTiter-Glo ATP |  | 72 h, first round 5-point | reference: DMSO 0%, hyamine -100%, more negative, more toxic | maximum response | -9.46% |
| Cn1cncc1-c1c(F)cncc1NC(=O)c1c(N)nn2cc(F)cnc12 |  |  | human patients | oral, dose not given, 21 days, all doses |  | anaemia DLT | 19% |
| N=c1c2c(-c3ccccc3)c(-c3ccccc3)n(Cc3ccccc3)c2ncn1[C@H]1CC[C@H](O)CC1 |  |  | Beagle dogs, male, plasma | dose not given |  | AUC(0-t)/AUC(0-inf) | < 60% |
| Cn1c(-c2ccc(C(N)=O)cc2F)nnc1C(C)(C)Oc1c(F)cc(Cl)cc1F |  |  | human | oral, dose not given, single ascending dose all doses |  | subjects with any TEAE | 30.6% |
| CC(C)C[C@H](NC(=O)[C@H](CCCCN)NC(=O)OCC1c2ccccc2-c2ccccc21)C(=O)N[C@H](C(=O)N[C@@H](Cc1ccccc1)C(=O)N[C@@H](Cc1ccccc1)C(=O)N[C@@H](CCCCN)C(=O)NCC(=O)N[C@@H](Cc1ccccc1)C(=O)N[C@@H](C)C(=O)N[C@@H](Cc1c[nH]c2ccccc12)C(=O)N[C@@H](CC(N)=O)C(=O)N[C@H](C(=O)N[C@H]1CSSC[C@@H](C(=O)N[C@@H](Cc2c[nH]cn2)C(=O)N[C@@H](CCCNC(=N)N)C(=O)N[C@@H](CCCNC(=N)N)C(=O)N[C@@H](C)C(=O)N[C@@H](CC(N)=O)C(N)=O)NC(=O)[C@H](C(C)C)NC(=O)[C@H](CCCNC(=N)N)NC(=O)[C@H](C(C)C)NC(=O)CNC(=O)[C@H](CC(N)=O)NC(=O)[C@H](CCCNC(=N)N)NC(=O)[C@H](Cc2ccc(O)cc2)NC(=O)[C@H](C(C)C)NC1=O)C(C)C)C(C)C |  |  | ICR mice, serum | intraperitoneal, 10 mg/kg, day 5 |  | albumin | 34.6 ± 2.14 g/L |
| [Se] |  |  | rat | single dose, sodium selenate |  | brain-to-plasma ratio | ~0.2 |

Repeated from above:
| SMILES | target or system | test | test system | setting | how to read | endpoint | value |
| --- | --- | --- | --- | --- | --- | --- | --- |
| CC(C)(c1ccccc1)c1cc(-n2nc3ccccc3n2)c(O)c(C(C)(C)c2ccccc2)c1 |  | exposure assessment | human, age 1-2 years | spray sunscreen |  | mean daily dermal uptake | 15 ng/kg body weight/day |
| C=CC(=O)N1CC[C@H](n2nc(C#Cc3cc(OC)cc(OC)c3)c3c(N)ncnc32)C1 |  |  | patients with advanced solid tumours | oral, dose not given, Nausea, any grade, QD, added: phosphate-binding therapy |  | adverse drug reaction incidence | 17.5% |
| CC[C@H](C)[C@H](NC(=O)[C@H](CC(C)C)NC(=O)[C@H](Cc1c[nH]c2ccccc12)NC(=O)[C@H](CCC(N)=O)NC(=O)[C@@H](NC(=O)[C@H](Cc1ccccc1)NC(=O)[C@H](C)NC(=O)[C@H](CCCCNC(=O)COCCOCCNC(=O)COCCOCCNC(=O)CC[C@H](NC(=O)CCCCCCCCCCCCCCCCCCC(=O)O)C(=O)O)NC(=O)[C@H](CCC(N)=O)NC(=O)[C@H](C)NC(=O)[C@@H](NC(=O)[C@H](CCCCN)NC(=O)[C@H](CC(=O)O)NC(=O)[C@H](CC(C)C)NC(=O)C(C)(C)NC(=O)[C@@H](NC(=O)[C@H](CO)NC(=O)[C@H](Cc1ccc(O)cc1)NC(=O)[C@H](CC(=O)O)NC(=O)[C@H](CO)NC(=O)[C@@H](NC(=O)[C@H](Cc1ccccc1)NC(=O)[C@@H](NC(=O)CNC(=O)[C@H](CCC(=O)O)NC(=O)C(C)(C)NC(=O)[C@@H](N)Cc1ccc(O)cc1)[C@@H](C)O)[C@@H](C)O)[C@@H](C)CC)[C@@H](C)CC)C(C)C)C(=O)N[C@@H](C)C(=O)NCC(=O)NCC(=O)N1CCC[C@H]1C(=O)N[C@@H](CO)C(=O)N[C@@H](CO)C(=O)NCC(=O)N[C@@H](C)C(=O)N1CCC[C@H]1C(=O)N1CCC[C@H]1C(=O)N1CCC[C@H]1C(=O)N[C@@H](CO)C(N)=O |  |  | human, plasma | subcutaneous, 5 mg first dose, week 1, 5 mg group, tau 168 h, geometric mean |  | AUC(0-tau) | 48800 ng·h/mL |
